Results from different studies.
Every numbered part comes from another study and shows a few of its results, in no order.

Sample 1
Target: Sal-like protein 4, full length isoform B (SALL4, Homo sapiens, UniProt Q9UJQ4-2, residues 1-616)
Technique: universal PBM
Molecule type: double-stranded DNA, one strand shown
Medium: in vitro
Tested at: not given
Setting: 8-mer, flanks averaged, mean of replicates
Reading: higher = stronger binding
Measurement: E-score
ATCCTGAC: -0.104
AACAGGTG: -0.0195
CGCATGTC: -0.0629
AATGCTTA: 0.17
GATACTAA: 0.116
CAATTCCA: -0.00809
CCCTTAGC: -0.266
GCTGATCC: -0.355
ATGCGTTA: 0.133
AGTATTTG: 0.14
ACCGGTCG: -0.186
ACCCGCAT: -0.108
TCAGTTAA: 0.107
CTAATTCC: 0.0587
AAGTGTGA: 0.0184
CGCTGTGC: -0.166
AAGGGGGG: -0.31
GTTACGTA: 0.134
GGTGTCAA: -0.0411
AGAATAGC: 0.0337

Sample 2
Target: PABPC1L2, full length, GST fusion (mouse, UniProt A0ABA7IW68)
Technique: RNAcompete
Molecule type: RNA
Medium: in vitro
Tested at: 20 nM
Setting: 7-mer, probes averaged, single round
Relative to: mean of 7-mers
Reading: higher = stronger binding
Measurement: 7-mer Z-score
Construct (chain): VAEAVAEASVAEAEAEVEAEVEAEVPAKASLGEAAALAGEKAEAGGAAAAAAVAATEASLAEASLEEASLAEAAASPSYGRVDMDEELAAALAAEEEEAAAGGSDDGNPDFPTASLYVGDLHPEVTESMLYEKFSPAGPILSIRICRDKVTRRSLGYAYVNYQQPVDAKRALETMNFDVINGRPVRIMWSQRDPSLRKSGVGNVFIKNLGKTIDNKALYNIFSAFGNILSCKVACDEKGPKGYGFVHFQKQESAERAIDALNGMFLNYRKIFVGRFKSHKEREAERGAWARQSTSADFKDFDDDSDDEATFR
GAAGGUC: -0.162
UCACCCU: -0.264
GAGAUAU: -0.157
CGCGUAU: -0.231
CGUGGCA: 0.0551
UAAGUAG: -0.0971
CUUGCCG: -0.24
UUCUCGC: -0.443
CUAUCCU: -0.309
GUGUAGU: -0.142
UCCUUCC: -0.441
UCUCCUG: -0.494
CCUACCG: -0.311
CGUUAAU: -0.298
GUGCUGA: 0.046
GGAUCUU: 0.017
CCCGCGU: -0.311

Sample 3
Target: RNA binding protein fox-1 homolog 2, RRM domain, GST-SBP tag (RBFOX2, Homo sapiens, UniProt O43251-10, residues 100-194)
Technique: RNA Bind-n-Seq
Molecule type: RNA
Medium: in vitro
Tested at: 365 nM
Setting: natural RNA segment, single round, ends assumed
Relative to: no-protein control
Reading: higher = stronger binding
Measurement: RBNS enrichment (R)
Shared flanks, not repeated: GGGAGUUCUACAGUCCGACGAUC … UGGAAUUCUCGGGUGCCAA
Construct (chain): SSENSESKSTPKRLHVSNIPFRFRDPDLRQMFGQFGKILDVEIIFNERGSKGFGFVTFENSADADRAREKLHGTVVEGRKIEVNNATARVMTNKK
CCAUGUUUUCCUAUUCAUCUUAGUUCAUUUAGGGAUAGUCUGGGUUUCCCAGAAAAUGUGGAGCCAGAGAGAAACAGGCGGACGUGUGUUAGUUACCACGAUGGUGUUUA: 0.472
GCGCUACUUCUUAAGUACUUAAGUGACAUUUAGAUAAUUUAUAGUAAAACUGAAAUUAUUAUUAGCCAAUGCAUUGGUGCAUAGAAUUUACUAGGGCUACUUCUGGAAGC: 0.325
UUCCCACGGGAAGCUCUAGGACAGGAGGAAGGCGGGAAGCCCUGGGCAGGAACCACUCUGGCUGUCCAGGGGCUCCUGAAAUCUUCUGGUCAUCUACAAAGGGUAACAGG: 0.238
GGGGACUUUGUUGGUAGCCAUUUGGUAGAUGUUCUUUUCUAUUUAUAAGUGACUUUAAACUUUCCCUUGGCUGUUAAGAAGUUUGUUAUAGAUUUAGCUAUUUAUUGUUC: 0.672
GCCAGUGAGGAAAGGGGAGAGAGCAGAGCUUGCUGUCAGAGGCCAGGCUCCCAGUGCAGCCUCCUCUUGCUACGCCAUGCCACCCCCAUUCACAGGGAAACCUCUUUCCU: 0.221
AAUAAGUCUAAAGAAAAGAAAGUGCCUUAUUUUCCUUCAUGGUCAUUCAGUCAAGUGUCUCAUAAAGAUCAGCUCCUCCCUCAGAAUACAAGUUAAUGCAUGUUACUCAG: 22.3
GUUUCUGGUAGCAGGCCUCCAUUGAACUGUUGUAAAAUACAAGAAGUGUGGUCAGUAAGGAGAGUUGGGGUGGUGCCUUCCAGCCUGCCCGCCAGUCCAUCCUAGACACU: 0.394
GAAUCAGGACAGUACCUGUACAGGCACGGGGACCCGCUCCGUCCGUGCGCCGCCCUAUAUUGAGGGCUCCAGCUCUCCCUUGGUUUUUGAAAGGGGUUUAUGUAUAAAUA: 0.38
CUUUUACAUUCCCUUGCUCCGUUACCUAACGACUUAAACCAGUUCCUUGCUUCCCCCAUCCCUACACAUUGUUCCUAAGUCUGAUUUUACCUCCCCAAUACCAGCCAGUA: 1.47
UGUUUGGGCCUUCCCCAUCCUAUUGGACUGGCUGAUGCUCCUAGUUUAUAAUGUUCUGGCGUUGUAGCAGAAGGUUGGAUGACACACAAGCAUCUGAAACGUGCCAGCCU: 0.284
GCUUAUUUUAAUGUGAUUUUUCUAAAACUAUUGAAAAAUUAAUAUUUCUAUAAUCUAUUAAAAAAAAUGGAGAAUGUUUUCUCUCAAAUUUCCUCUGACCCAUGGGAAUG: 0.515
UACAACAGAUGGGAGGGUGAAGGGGGCAGAAUGAAAAUCGAACCAACCUUUUAGCUGUUGCAAAUCAGAAGGAGCCAGAGAAGCAGGCAGUCUCAUGCAUGAGAGGUUAC: 39.5

Sample 4
Target: Prothrombin, mature alpha-thrombin (F2, Homo sapiens, UniProt P00734)
Technique: aptamer microarray, sandwich
Molecule type: DNA with 2'F-ANA
Medium: in vitro
Tested at: 200 nM
Setting: whole 15-mer aptamer, many near background
Added: Cy3 exosite-II aptamer, 400 nM
Reading: higher = stronger binding
Measurement: mean fluorescence intensity
Strand: GGTTGGTGTGGTTGG
2'F-ANA at 1 2 4 10 11 13 14 15: 78.3 a.u.
2'F-ANA at 3 4 5 6 9 11 12 13: 108 a.u.
2'F-ANA at 1 2 3 7 11 13: 205 a.u.
2'F-ANA at 4 5 6 7 8 9 12 13 15: 82.5 a.u.
2'F-ANA at 1 3 4 6 8 10 11 12 15: 71.3 a.u.
2'F-ANA at 2 4 5 6 8 9 11: 89.1 a.u.
2'F-ANA at 3 4 5 8 9 10 11 13 14 15: 55.1 a.u.
2'F-ANA at 1 3 4 6 10 13: 54.9 a.u.
2'F-ANA at 2 3 4 6 7 9 10 11 12 13 14 15: 143 a.u.
2'F-ANA at 2 5 8 9 12 13: 112 a.u.
2'F-ANA at 4 7 9 11 14 15: 87.3 a.u.
2'F-ANA at 1 7 12 13 15: 337 a.u.
2'F-ANA at 3 4 6 7 9 11 14 15: 248 a.u.
2'F-ANA at 2 3 5 7 8 9 10 11 13: 64.7 a.u.
2'F-ANA at 1 2 3 5 7 9 10 11 13 15: 59.2 a.u.
2'F-ANA at 1 2 4 5 6 8 10 12 13 14: 53.7 a.u.
2'F-ANA at 1 3 5 7 8 9 10 11 14 15: 45.1 a.u.
2'F-ANA at 1 3 6 7 8 9 10 11 12 14: 94 a.u.
2'F-ANA at 1 4 5 6 11 12 15: 74.1 a.u.
2'F-ANA at 1 2 4 5 7 8 9 11 13 14 15: 50.4 a.u.
2'F-ANA at 1 2 3 4 5 8 10 11 12 14 15: 58.2 a.u.
2'F-ANA at 1 10 12: 68.7 a.u.
2'F-ANA at 1 4 5 6 9 11 12 13: 67.7 a.u.
2'F-ANA at 2 6 8 10 11 12: 142 a.u.
2'F-ANA at 9 13 14: 200 a.u.

Sample 5
Target: Histone acetyltransferase KAT6A, winged helix 2, GST fusion (KAT6A, Homo sapiens, UniProt Q92794, residues 85-181)
Technique: protein binding microarray
Molecule type: double-stranded DNA, one strand shown
Medium: in vitro
Tested at: not given
Setting: 8-mer, flanks averaged, mean of 2 arrays, mostly near background
Relative to: not given
Reading: higher = stronger binding
Measurement: E-score
Target sequence (chain): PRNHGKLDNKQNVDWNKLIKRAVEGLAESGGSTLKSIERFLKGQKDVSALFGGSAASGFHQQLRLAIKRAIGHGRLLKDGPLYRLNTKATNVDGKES
CCTATTGC: -0.109
GAAATTTA: -0.0271
AAATGCCT: 0.0656
ACCGCCAA: 0.0614
CCATACAA: -0.164
CGGGTCGA: 0.114
CACTCTTA: -0.0103
ACGAGACA: 0.0493
ACACGTGG: -0.144
ATTTGACG: 0.0738
CGGGCCAA: -0.0203
CCTGATGA: 0.125
CCAAATCA: -0.0339
AGTGGTCC: -0.0334
TACAGTAA: -0.172
ACATGGCT: -0.212
AGCGCGTC: -0.0256
CGTGACTC: -0.152
AGCCGCAA: 0.0545
AACATGTA: -0.0573
ATAATGGA: -0.0924
AGGGTGGC: -0.00843
CCTCACAC: 0.05
ATTACCAC: 0.0347
TCGCTGCA: -0.051

For quick reference, copied from above (sample 2):
GAGAUAU: -0.157
CGCGUAU: -0.231
CGUGGCA: 0.0551
UAAGUAG: -0.0971
CUUGCCG: -0.24
UUCUCGC: -0.443
CUAUCCU: -0.309
GUGUAGU: -0.142
UCCUUCC: -0.441
UCUCCUG: -0.494
CCUACCG: -0.311
CGUUAAU: -0.298
GUGCUGA: 0.046
GGAUCUU: 0.017
CCCGCGU: -0.311
